{"data": "Measured values of several laboratories", "folP": "Dihydropteroate synthase (folP, Bacteria, UniProt P0AC13)", "UniProt P0AC13, sequence (whole entry, looked up)": "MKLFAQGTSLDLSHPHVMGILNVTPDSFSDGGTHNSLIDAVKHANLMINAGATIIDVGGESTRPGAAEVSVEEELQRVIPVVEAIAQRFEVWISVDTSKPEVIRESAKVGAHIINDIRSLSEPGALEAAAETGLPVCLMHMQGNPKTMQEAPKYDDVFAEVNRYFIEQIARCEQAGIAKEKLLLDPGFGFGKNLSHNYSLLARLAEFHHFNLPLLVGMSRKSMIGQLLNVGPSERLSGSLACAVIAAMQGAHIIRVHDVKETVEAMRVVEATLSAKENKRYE", "UniProt Q86TI2, sequence (whole entry, looked up)": "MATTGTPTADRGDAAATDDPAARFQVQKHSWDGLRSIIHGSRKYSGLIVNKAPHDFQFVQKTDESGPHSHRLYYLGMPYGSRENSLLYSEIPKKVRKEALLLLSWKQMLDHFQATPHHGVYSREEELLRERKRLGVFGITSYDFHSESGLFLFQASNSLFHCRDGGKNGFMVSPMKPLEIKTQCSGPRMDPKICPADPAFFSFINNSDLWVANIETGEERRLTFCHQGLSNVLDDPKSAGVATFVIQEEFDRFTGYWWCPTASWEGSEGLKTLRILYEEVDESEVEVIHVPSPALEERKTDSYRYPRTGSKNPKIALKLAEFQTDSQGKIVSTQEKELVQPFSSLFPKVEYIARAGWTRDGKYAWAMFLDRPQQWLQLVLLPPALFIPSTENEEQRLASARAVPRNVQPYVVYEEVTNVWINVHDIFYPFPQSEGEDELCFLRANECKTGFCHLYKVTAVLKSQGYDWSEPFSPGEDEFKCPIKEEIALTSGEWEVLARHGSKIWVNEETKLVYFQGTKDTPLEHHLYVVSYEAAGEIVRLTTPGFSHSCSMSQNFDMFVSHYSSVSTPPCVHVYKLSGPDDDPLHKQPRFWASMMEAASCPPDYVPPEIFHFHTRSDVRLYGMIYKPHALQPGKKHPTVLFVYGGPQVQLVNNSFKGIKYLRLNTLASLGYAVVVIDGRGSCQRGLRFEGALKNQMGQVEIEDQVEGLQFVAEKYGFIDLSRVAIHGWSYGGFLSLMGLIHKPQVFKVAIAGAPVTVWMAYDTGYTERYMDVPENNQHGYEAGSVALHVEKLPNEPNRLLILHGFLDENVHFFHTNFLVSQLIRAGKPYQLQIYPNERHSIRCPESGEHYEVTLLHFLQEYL", "UniProt O15151, sequence (whole entry, unmodified, looked up)": "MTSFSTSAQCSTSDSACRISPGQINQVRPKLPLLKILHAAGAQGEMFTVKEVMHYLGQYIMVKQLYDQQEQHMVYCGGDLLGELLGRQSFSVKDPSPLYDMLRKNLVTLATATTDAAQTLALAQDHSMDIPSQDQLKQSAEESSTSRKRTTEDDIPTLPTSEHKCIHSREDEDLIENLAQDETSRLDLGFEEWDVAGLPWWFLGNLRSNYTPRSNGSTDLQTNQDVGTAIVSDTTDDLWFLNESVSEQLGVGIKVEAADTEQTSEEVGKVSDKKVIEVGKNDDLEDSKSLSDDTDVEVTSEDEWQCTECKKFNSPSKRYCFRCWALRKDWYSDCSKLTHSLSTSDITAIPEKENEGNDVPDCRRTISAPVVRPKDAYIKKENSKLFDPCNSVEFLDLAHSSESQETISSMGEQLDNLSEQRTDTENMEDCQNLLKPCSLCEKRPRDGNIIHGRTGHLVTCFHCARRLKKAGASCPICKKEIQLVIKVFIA", "UniProt Q9BQA1, sequence (whole entry, looked up)": "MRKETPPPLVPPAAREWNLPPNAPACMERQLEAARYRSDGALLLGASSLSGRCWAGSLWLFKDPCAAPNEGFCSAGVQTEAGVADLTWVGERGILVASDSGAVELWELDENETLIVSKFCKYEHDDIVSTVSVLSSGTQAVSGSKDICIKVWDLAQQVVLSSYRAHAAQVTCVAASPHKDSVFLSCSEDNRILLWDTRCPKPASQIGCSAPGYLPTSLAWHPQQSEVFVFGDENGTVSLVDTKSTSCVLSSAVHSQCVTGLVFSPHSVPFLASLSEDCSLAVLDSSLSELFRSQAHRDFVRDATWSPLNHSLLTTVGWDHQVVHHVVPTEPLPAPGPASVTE", "UniProt P41968, sequence (whole entry, looked up)": "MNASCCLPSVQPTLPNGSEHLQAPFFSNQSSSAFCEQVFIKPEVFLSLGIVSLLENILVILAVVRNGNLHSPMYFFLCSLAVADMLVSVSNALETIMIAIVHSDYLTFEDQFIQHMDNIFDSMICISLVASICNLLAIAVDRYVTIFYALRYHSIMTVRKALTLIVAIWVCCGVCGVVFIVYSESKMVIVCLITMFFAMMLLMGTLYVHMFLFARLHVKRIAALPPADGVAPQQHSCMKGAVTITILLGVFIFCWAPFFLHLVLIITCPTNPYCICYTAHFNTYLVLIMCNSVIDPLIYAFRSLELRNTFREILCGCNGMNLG", "UniProt Q14145, sequence (whole entry, unmodified, looked up)": "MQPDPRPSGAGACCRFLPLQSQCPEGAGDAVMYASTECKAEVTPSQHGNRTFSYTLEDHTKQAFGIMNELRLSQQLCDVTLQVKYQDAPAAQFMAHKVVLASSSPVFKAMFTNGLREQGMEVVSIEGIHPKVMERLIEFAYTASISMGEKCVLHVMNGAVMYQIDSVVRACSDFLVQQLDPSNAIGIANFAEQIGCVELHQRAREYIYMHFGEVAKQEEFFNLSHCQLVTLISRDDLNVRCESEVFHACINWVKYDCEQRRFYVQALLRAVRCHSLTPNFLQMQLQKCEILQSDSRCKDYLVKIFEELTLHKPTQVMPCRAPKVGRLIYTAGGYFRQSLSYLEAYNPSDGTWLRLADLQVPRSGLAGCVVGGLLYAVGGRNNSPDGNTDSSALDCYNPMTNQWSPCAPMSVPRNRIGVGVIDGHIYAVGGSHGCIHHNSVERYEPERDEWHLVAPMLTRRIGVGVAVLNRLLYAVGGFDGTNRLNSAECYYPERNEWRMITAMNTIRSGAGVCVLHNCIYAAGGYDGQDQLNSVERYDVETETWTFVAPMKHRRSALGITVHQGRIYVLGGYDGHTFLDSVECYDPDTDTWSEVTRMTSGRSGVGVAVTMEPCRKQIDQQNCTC", "UniProt Q15907, sequence (whole entry, looked up)": "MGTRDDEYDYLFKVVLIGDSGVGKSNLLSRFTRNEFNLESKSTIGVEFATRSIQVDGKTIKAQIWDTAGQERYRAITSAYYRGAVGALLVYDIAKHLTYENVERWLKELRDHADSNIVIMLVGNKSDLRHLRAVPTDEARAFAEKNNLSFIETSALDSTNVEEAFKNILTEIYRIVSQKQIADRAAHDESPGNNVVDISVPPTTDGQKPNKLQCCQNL", "UniProt P21964, sequence (whole entry, looked up)": "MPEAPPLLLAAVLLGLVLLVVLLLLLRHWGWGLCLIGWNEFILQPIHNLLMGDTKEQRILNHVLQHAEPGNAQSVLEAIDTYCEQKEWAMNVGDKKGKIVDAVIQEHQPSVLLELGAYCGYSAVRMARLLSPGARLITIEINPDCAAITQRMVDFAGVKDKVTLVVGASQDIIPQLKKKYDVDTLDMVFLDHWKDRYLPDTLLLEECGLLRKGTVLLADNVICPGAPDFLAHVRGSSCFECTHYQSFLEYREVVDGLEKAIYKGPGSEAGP"}
{"Compound": "COC(=O)CC(C)c1nn(C)c2nc(N)[nH]c(=O)c2c1=O (stereo not shown)", "target": "folP", "test": "CETSA HiBiT", "test system": "Escherichia coli, whole cells", "endpoint": "melting temperature", "result": "58.1 °C"}
{"Compound": "CC(=O)NCCCCCNc1nc(NCCCCCCN(C)C)c2cc(NC(=O)/C=C/CN(C)C)ccc2n1", "target": "SETDB1 (Homo sapiens, UniProt Q15047)", "test": "cell-free assay, inhibitor, FP", "conditions": "15.62 nM", "endpoint": "remaining signal", "result": "118%"}
{"Compound": "Cc1cc(C)cc(COc2cc3c(cc2OCc2cc(C)cc(C)c2)C2CC(O)(Cc4cn(CCOCCOCCNC(=O)CCCCC5SCC6NC(=O)NC65)nn4)CC(C)N2CC3)c1 (stereo not shown)", "target": "RAB11B (Homo sapiens, UniProt Q15907)", "test": "biotinylated probe pull-down", "conditions": "10 µM probe", "scale": "reference: heavy over light", "endpoint": "SILAC ratio", "result": 2.21}
{"Compound": "OCC1OC(n2cc(-c3ccc(F)cc3F)nn2)C(O)C(O)C1O (stereo not shown)", "target": "Protein Mdm4 (MDM4, Homo sapiens, UniProt O15151)", "test": "thermal stability, DSF", "conditions": "30 µM", "endpoint": "ΔTm", "result": "1.17 °C"}
{"Compound": "CSCC[C@H](NC(=O)[C@H](CCCNC(=N)N)NC(=O)[C@H](Cc1ccc(O)cc1)NC(=O)[C@@H]1CCCN1C(=O)CNC(=O)[C@H](CCC(=O)O)NC(=O)[C@H](CC(=O)O)NC(=O)[C@H](CCCCN)NC(=O)[C@H](CCCCN)NC(=O)[C@H](CCC(=O)O)NC(=O)[C@H](C)N)C(=O)N[C@@H](CCC(=O)O)C(=O)N[C@@H](Cc1c[nH]cn1)C(=O)N[C@@H](Cc1ccccc1)C(=O)N[C@@H](CCCNC(=N)N)C(=O)N[C@@H](Cc1c[nH]c2ccccc12)C(=O)NCC(=O)N[C@@H](CO)C(=O)N1CCC[C@H]1C(=O)N1CCC[C@H]1C(=O)N[C@@H](CCCCN)C(=O)N[C@@H](CC(=O)O)C(=O)O", "target": "MC3R (Homo sapiens, UniProt P41968)", "test": "cAMP, agonist", "test system": "CHO-K1", "endpoint": "Emax", "result": "96%"}
{"Compound": "CCCCCC(O)/C=C/C=O (stereo not shown)", "target": "Methylosome protein WDR77 (WDR77, Homo sapiens, UniProt Q9BQA1)", "test": "competitive isoTOP-ABPP, item: WDR77 cysteine peptide", "test system": "Ramos soluble proteome", "conditions": "100 µM, with: iodoacetamide probe", "scale": "reference: DMSO over compound-treated, higher = stronger cysteine blockade", "endpoint": "isoTOP-ABPP competition ratio", "result": 1.5}
{"Compound": "CCC1(CC)C(=O)N(c2cccc(CN3CCN(Cc4ccc(Br)c5ccccc45)CC3)c2)C1=O.O=C(O)C(F)(F)F", "target": "DPP9 (Homo sapiens, UniProt Q86TI2)", "test": "enzyme activity, inhibitor", "conditions": "5 µM", "endpoint": "activity vs control", "result": "79%"}
{"Compound": "CC(=O)N[C@@H](CO)C(=O)N[C@@H](C)C(=O)N[C@@H](CCCCN)C(=O)N[C@@H](C)C(=O)N[C@@H](C)C(=O)N[C@@H](CC(=O)O)C(=O)N[C@@H](CC(=O)O)C(=O)N1CCC[C@H]1C(=O)N[C@@H](CCC(=O)O)C(=O)N[C@@H](CC(N)=O)C(=O)NCC(=O)N[C@@H](CCC(=O)O)C(=O)N[C@@H](CCCNC(=N)N)C(=O)N[C@@H](CCC(=O)O)C(=O)N[C@@H](CO)C(=O)N[C@@H](Cc1c[nH]cn1)C(=O)N[C@H](C(=O)N1CCC[C@H]1C(=O)N[C@H](C(=O)N[C@@H](CO)C(N)=O)C(C)C)[C@@H](C)O", "target": "Kelch-like ECH-associated protein 1, Kelch domain (KEAP1, Homo sapiens, UniProt Q14145)", "test": "binding, ITC", "conditions": "pH 7, 298.15 K", "endpoint": "TΔS", "result": "-7.21 kcal/mol"}
{"Compound": "Cn1nc(CC(=O)O)c(=O)c2c(=O)[nH]c(N)nc21", "target": "folP", "test": "CETSA HiBiT", "test system": "Escherichia coli, whole cells", "endpoint": "melting temperature", "result": "64 °C"}
{"Compound": "COc1c(O[C@@H]2O[C@H](C(=O)O)[C@@H](O)[C@H](O)[C@H]2O)cc2oc(-c3ccccc3)cc(=O)c2c1O", "target": "COMT (Homo sapiens, UniProt P21964)", "test": "UV", "scale": "reference: native over denatured target", "endpoint": "binding index", "result": 1.48}
